# Experimental data gathered from unrelated publications.
# Protocols differ between the studies behind these lines. Several values in a cell are separate wells, animals, samples, runs or records. Numbers after ± are the reported error.
Compound,target or system,test,test system,setting,scale,endpoint,result
COc1cc(/C=C/c2cc(C)n[nH]2)ccc1O,A549,PI staining flow cytometry,,"50 µM, 48 h",,cells in G2/M phase,53.7%
Cc1cccc(NC(=O)CC(=O)Nc2ccc3[nH]nc(/C=C/c4ccccn4)c3c2)c1,Ba/F3 TEL-VEGFR1,"cell growth, CCK-8",,,,GI50,1000 nM
CO[C@@H]1[C@@H](OC(N)=O)[C@@H](O)[C@H](Oc2ccc3c(O)c(NC(=O)c4ccc(O)c(CC=C(C)C)c4)c(=O)oc3c2C)OC1(C)C,DLD-1 parental,,,"150 µM, replicate 2",,colony count,0.1
O=C(N1CCCC1)n1cc(-c2ccc(-c3ccccc3)cc2)nn1,mouse T-cells,"N-terminal labelling enrichment, refers to: Uqcrh N-terminal peptides",,"1 nM, 6 h, single tryptic peptide",relative to: DMSO,SILAC ratio,1.31 and 1.14
O=C(N/N=C/c1cc[n+](Cc2ccccc2)c2ccccc12)c1cncc(C(=O)N/N=C/c2cc[n+](Cc3ccccc3)c3ccccc23)n1,hp2 hairpin duplex DNA,FRET melting,,1 µM,,ΔTm,1.4 ± 0.3 °C
CC#CC#C/C=C1/O[C@@]2(CCCCO2)[C@@H](O)[C@@H]1OC(C)=O,RAW264.7,Western blot,,"concentration not given, with: LPS",,JNK phosphorylation,decreased
O=C1CC[C@H](N2Cc3cc(-c4ccn5ncc(Cl)c5n4)ccc3C2=O)C(=O)N1,MOLM-13,"mRNA level, RNA-seq, refers to: PHGDH",,"200 nM, 24 h",relative to: DMSO,log2 fold change,-4.53
O=C(c1cccc(-c2ccc3ncnc(Nc4ccc(OCc5cccc(F)c5)c(Cl)c4)c3c2)c1)N1CCCCC1,Leishmania major,"intracellular amastigote growth, luciferase",RAW264.7 macrophages,,,EC50,> 3000 nM
O=C(C[Se]C(=O)c1cccnc1Nc1cccc(C(F)(F)F)c1)Nc1cccc(C(F)(F)F)c1,"LNCaP, serum starved",flow cytometry,,"IC50, 48 h",,G0/G1 phase cells,69.8%
CC(C)c1ccc(N(C)c2ccc3c(c2)OCC[C@H]3CNc2cnccc2C(=O)O)cc1,COLO 205,"cell growth or viability, ATP luminescence",,7 days,,IC50,11.5 nM
Cc1ncsc1-c1ccc(C(C)NC(=O)C2CC(O)CN2C(=O)C(NC(=O)CCCCCCCCCCN2CCCC(Nc3ncc(Cl)c(Nc4ccccc4S(=O)(=O)C(C)C)n3)C2)C(C)(C)C)cc1 (centres unmarked),22Rv1,"RNA-seq, refers to: ZNF79 mRNA",,concentration not given,relative to: DMSO,log2 fold change,-2.09
Clc1cc(Nc2ncnc3ccc(-c4cccc(N5CCOCC5)c4)cc23)ccc1OCc1ccccc1,Leishmania major,"intracellular amastigote growth, luciferase",RAW264.7 macrophages,,,EC50,19000 nM
COc1ccc(NC(=O)c2ccc3[nH]c(-c4ccc(N(C)C)cc4)nc3c2)cn1,HCT-116,refers to: CXCL1-luc luciferase reporter,,"concentration not given, unit not given",relative to: DMSO,reporter activity,3.71
CNS(=O)(=O)Nc1nccc(Cc2c(C)c3ccc(Oc4ncccc4F)cc3oc2=O)c1F,MCF-10A,cell viability,,7 days,,IC50,4.42 nM
Cc1cc(C)nc(SCC(=O)Nc2ncc(Cc3cccc(OCc4cn(-c5ccc(Cl)cc5)nn4)c3)s2)n1,PC-3M-luc,"colony formation, colony forming",,1 µM,,inhibition,17 ± 9.9%
CN(C)Cc1nc(Nc2ccc(-c3cnc4cc(F)ccn34)c3c2C(=O)NC3)ccc1C1CCOC1 (centres unmarked),mouse BMDC,flow cytometry,,10 µM,,CD86-positive cells,80%
COC(=O)c1cc(NC2=NC(=O)C(=Cc3ccc(C)cc3)S2)ccc1OC(C)=O,MCF7,"GC-MS, refers to: Dl-Phenylalanine",,1 µM,relative to: DMSO,metabolite level,-0.13 fold change
O=C(N/N=C/c1cc[n+](Cc2ccccc2)c2ccccc12)C(=O)N/N=C/c1cc[n+](Cc2ccccc2)c2ccccc12,hp2 hairpin duplex DNA,FRET melting,,"1 µM, with: ds26 10 µM",,ΔTm,0.8 ± 0.3 °C
CC(C)(C)c1cc(-c2ccc3cccnc3n2)nc(-c2ccc3cccnc3n2)c1.[Cl-].[Cl-].[Ru+2].c1cnc2c(c1)ccc1cccnc12,A-375,resazurin,,"with: light 523 nm, 100 J/cm2",relative to: dark EC50 over light EC50,phototoxicity index,2
CN(C)c1ccc(-n2cc(COC(=O)[C@]3(C)C=C(C(=O)OC(C)(C)C)C(=O)CC3)nn2)cc1,AP-1 reporter HEK293,"AP-1 reporter gene, luciferase reporter",,"1 µM, 6 h, with: PMA 6 ng/mL",higher = more transcription,luminescence,7860 a.u.
CC(=O)NCCCN(C)CCCNc1cccc2c1C(=O)c1cccc(NCCCN(C)CCCNC(C)=O)c1C2=O,SAS,"RNA-Seq, refers to: WRAP73 mRNA",,"1 µM, 6 h",relative to: untreated cells,log2 fold change,-0.559
Cn1ncc2cc(-c3cncc(Cl)c3N3CCC4(CCNC4=O)CC3)ccc21,LS174T,"gene expression, microarray, refers to: TNFRSF12A mRNA",,"concentration not given, 24 h",relative to: untreated cells,log2 fold change,-2.63
CN1CCCNC(=O)c2cccc(c2)C(=O)NCCCN(C)CCCNc2cccc3c2C(=O)c2cccc(c2C3=O)NCCC1,SAS,"RNA-Seq, refers to: C8orf33 mRNA",,"1 µM, 6 h",relative to: untreated cells,log2 fold change,-0.596
CC(C)C[C@@H]1NC(=O)[C@H](CC(C)C)NC(=O)[C@H](Cc2c[nH]c3ccccc23)NC(=O)[C@H](CO)NC(=O)[C@H](Cc2c[nH]c3ccccc23)NC(=O)[C@@H]2CCCN2C(=O)[C@H](CC(C)C)NC(=O)[C@H](Cc2c[nH]cn2)NC(=O)[C@@H]2CCCN2C(=O)[C@H](CC(N)=O)NC(=O)[C@H](C)NC(=O)[C@H](Cc2ccc(O)cc2)NC(=O)[C@H](CS)NC(=O)[C@H](CCCCNC(=O)CN2CCN(CC(=O)O)CCN(CC(=O)O)CCN(CC(=O)O)CC2)NC1=O [lutetium-177 labelled],4T1,flow cytometry,,"0.4 Bq/cell, 72 h",,live cells,43.8%
CCN(C(=O)c1cc(F)ccc1Oc1nncnc1N1CCC2(C1)CN([C@H](CCCN(C)CCOC)C(C)C)C2)C(C)C,THP-1,cell growth or viability,,72 h,,GI50,> 10000 nM
Cc1cc(Cl)cc(-c2ccnc3cc(CN4C(=O)C5C(C4=O)C5(C)C)sc23)c1C[C@@H]1CNCCO1 (some centres unmarked),CAPAN-1 resistant to compound,SRB viability,,,relative to: IC50 resistant over parental,resistance factor,14.9
CC(=O)OC[C@H]1O[C@@H](n2cc(CSc3nc4ccccc4n3Cc3cn([C@@H]4O[C@H](COC(C)=O)[C@@H](OC(C)=O)C(OC(C)=O)[C@H]4OC(C)=O)nn3)nn2)[C@H](OC(C)=O)C(OC(C)=O)[C@@H]1OC(C)=O (stereo in doubt),Caco-2,MTT,,125 ppm,,cytotoxicity,89.8%
Cn1ncc(-c2ccc3c(=O)[nH]nc(CN)c3c2)c1-c1c(F)c(Cl)cc(OC2CC2)c1C#N,SK-MES-1,"cell viability, inhibitor, CellTiter-Glo",,"120 h, baseline-subtracted",,IC50,4040 nM
CC(C)(C)c1cc(-c2ccc3cc4ccccc4nc3n2)nc(-c2ccc3cc4ccccc4nc3n2)c1.Cc1ccncc1.[Cl-].[Cl-].[Ru+2].c1ccc2cc3nc4c5cccnc5c5ncccc5c4nc3cc2c1,A-375,resazurin,,"with: light 523 nm, 100 J/cm2",relative to: dark EC50 over light EC50,phototoxicity index,4
COc1cc(N2CCN(C(=O)C3CCCN3)CC2)ccc1Nc1ncc(Cl)c(Nc2ccccc2P(C)(C)=O)n1 (centres unmarked),NCI-H3122,CCK-8,,"10 nM, 48 h",,viability,69%
CCN(CC)CC(=O)Nc1cccc(-n2cc(-c3ccc4ccc(-c5cn(-c6cccc(NC(=O)CN(CC)CC)c6)nn5)cc4c3)nn2)c1,RCC4,"PCR angiogenesis array, refers to: NOS3",,"5 x IC50, 6 h, normoxia",relative to: untreated,fold regulation,1.06
Cc1ccncc1.[Cl-].[Cl-].[Ru+2].c1cc(-c2ccc3cccnc3n2)nc(-c2ccc3cccnc3n2)c1.c1ccc2cc3nc4c5cccnc5c5ncccc5c4nc3cc2c1,A-375,,,visible light 100 J/cm2,relative to: dark EC50 over light EC50,phototherapeutic index,45
